Measurements of several laboratories.
Numbered parts are unrelated; each lists some results of a single study. Changes are numbered by the printed parent chain.

Series 1
Target: Histone acetyltransferase KAT6A, both winged helices, GST fusion (KAT6A, Homo sapiens, UniProt Q92794, residues 1-181)
Technique: protein binding microarray
Molecule type: double-stranded DNA, one strand shown
Medium: in vitro
Tested at: not given
Setting: 8-mer, flanks averaged, mean of 2 arrays, mostly near background
Baseline: not given
Reading: higher = stronger binding
Construct (chain): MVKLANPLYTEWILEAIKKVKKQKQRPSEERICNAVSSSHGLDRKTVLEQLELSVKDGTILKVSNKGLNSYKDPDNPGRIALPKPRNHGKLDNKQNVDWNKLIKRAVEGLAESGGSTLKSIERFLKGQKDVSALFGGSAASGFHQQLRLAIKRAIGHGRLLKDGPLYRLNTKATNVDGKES
Oligonucleotide	E-score
TAGGCCAA	-0.188
CAGTAAGG	-0.0807
AGGGGTAG	-0.281
ACGAAATA	-0.106
AAGGGTGC	-0.107
CACGTTGC	-0.0321
TCAACGCA	0.189
CGAATAGC	-0.0966
GCAGACGC	0.187
GCCAAAGA	-0.0926
GAGTTAAC	-0.0208
CCTTGTAA	-0.00103
ACAGAAAA	-0.00059
CCCGCCCA	0.147
ACCGTGAT	0.0949
GGATCCAA	-0.0411
ACCGATGG	-0.018
GCACTCGC	0.175
GATATCAA	-0.0272
TCTCAACA	-0.0446
CTTCGTCC	0.0323
CATCGCGG	0.281
CACAGGCA	-0.196
GAAACTCC	-0.0109

Series 2
Target: RNA binding protein fox-1 homolog 2, RRM domain, GST-SBP tag (RBFOX2, Homo sapiens, UniProt O43251-10, residues 100-194)
Technique: RNA Bind-n-Seq
Molecule type: RNA
Medium: in vitro
Tested at: 365 nM
Setting: natural RNA segment, single round, ends assumed
Baseline: no-protein control
Reading: higher = stronger binding
Constant ends, left off below: GGGAGUUCUACAGUCCGACGAUC … UGGAAUUCUCGGGUGCCAA
Construct (chain): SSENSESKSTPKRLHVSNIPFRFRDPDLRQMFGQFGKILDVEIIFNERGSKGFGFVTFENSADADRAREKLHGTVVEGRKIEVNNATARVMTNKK
Oligonucleotide	RBNS enrichment (R)
GCAUGCAAAGCAGACUGCAGCUAGUUAAGAGGAGGCUGCAGUAUCAUCCCUAGUAUCUGCUCUGCAAACCAUCUAGACAGAAGCAGUAGGCCUGGCUUUCUCAACUGCCU	3.27
CUACAGAAAAAAGACAAGUGGAAGUGGUUUACCAAUACCUAGCAUGGUACAAUCAGAGCUCCGUGGGGACUGUAGGGAGCAGGGUGUUACUACUGGCCGUUCUUCCCACA	0.511
GUUUAUAAUGUUCUGGCGUUGUAGCAGAAGGUUGGAUGACACACAAGCAUCUGAAACGUGCCAGCCUCUGCGGUUCCCGUUAUCAUCUUAGGGGGCAGAAGCCAAUGGGU	0.618
UUGGGGCCUAGGAACCGAGGGCACACGGGACUCUAGCCUCAUCCCCAGGACCCCCUUGGCUCAGAGUGUGGUGCUAGAAACUGGCCCCCAGCCCAGCCCCAGUACUGCCA	0.288
UUUUACCUUAAAUCUGCCUUUGUUUCUAAAGGUAGAUCAUCUUGAAUAUUUGCUUAAAAUUGCUAGUGAUUUCAUUACCAAGUUACUUGAAAAAAUGUUCUAUAUGCAUU	0.772
UGAGUGAUGAGCACUUCCAAGCACCCCUCUGCCCUUUCUCUGUCCUUAUGCUGUCCCGGCCUCGCCAGCCCUCUGGGGCAUUGUGGGAGAUGCCUGCCAGGAAUGAGCAA	0.714
CACUUCAUUUUAAGAGCAAAAGACCCCAUGUUGAAAACUCCAUAACAGUUUUAUGCUGAUGAUAAUUUAUCUACAUGCAUUUCAAUAAACCUUUUGUUUCCUAAGACUAG	0.365
UCAGUGGAACUGCAACAUCUACUGGAUCAGCUCCAUCCUCAAGCACUUUGCCAGCAGCUUCUAGCCUUAAAACCCCAGGAACUUCUGCAAAUAUGAAUGGACCCAUUUCA	0.31
UCACCAAUUUGUACAUUAUUUGUUGUCCUUUACUACUGUAAACAGUAAAUAUAGUUUGGUAUUCUGUUCUUGGCUUCUACUAAACACUGCAUUUGAAGGUUGGGGCAUAC	0.688
CAAAGUACAUUGUAAAAUAAAGUUGAGCUUAGUUUUUUUUAAAAAAAAAAACAAAGCAACAAAUUAACUAGAUACAGAAUAAUGGAGAACAAGUUGUUAAAACAUUUAAU	0.472
AGACUACUUGACAGGACAUAAGAUGGAAACGCCAUCAGGAAAAGAUGUGGCUGAACAAGCAGGAAGAGUCCUGCUGUGUAAAUUGUAAAUGUCGAGUGCACUUGAUGAAG	0.674
GUGGCUCCAGCUGCCCACCAUUCUCACUCUUCUCCUCCCAAGCCACCGGGGUCAGGUCUCUCAUCUUAAGAAGUUCCCUCUAAAAUGAAAGGUUGUGUAAGAGGAAAGCC	0.653

Series 3
Target: ABI1, truncated, D143A, DHFR fusion (Arabidopsis thaliana)
Technique: DHFR PCA, deep sequencing
Medium: yeast
Setting: methotrexate growth selection, single substitutions
With: (+)-ABA 0.39 µM
Baseline: wild-type fitted maximum
Reading: higher = stronger binding
Starting sequence: PYL1, truncated, DHFR fusion (Arabidopsis thaliana); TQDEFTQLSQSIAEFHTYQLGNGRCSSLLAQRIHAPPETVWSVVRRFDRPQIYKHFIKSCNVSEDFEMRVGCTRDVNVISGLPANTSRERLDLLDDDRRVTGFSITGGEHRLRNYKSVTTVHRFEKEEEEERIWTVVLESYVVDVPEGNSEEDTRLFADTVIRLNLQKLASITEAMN; partner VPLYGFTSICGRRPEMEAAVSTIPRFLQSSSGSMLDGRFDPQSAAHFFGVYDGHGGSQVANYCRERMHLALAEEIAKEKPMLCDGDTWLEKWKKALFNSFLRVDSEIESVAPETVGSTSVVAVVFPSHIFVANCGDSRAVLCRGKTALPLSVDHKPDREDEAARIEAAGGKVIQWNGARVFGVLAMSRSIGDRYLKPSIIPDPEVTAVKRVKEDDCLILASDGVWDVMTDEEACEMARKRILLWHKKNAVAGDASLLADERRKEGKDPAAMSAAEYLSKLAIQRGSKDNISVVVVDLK
Change	relative binding score [%]
G81W	-8.05
F103K	-9.22
A175M	29.9
K54S	-13.3
E38F	-6.15
Q167S	41.4
D65C	15.8
S140Y	4.34
E89C	-5.49
F157Q	-0.212
S11D	51.9
S140R	13.7
V43K	-9.21
S140T	11.3
R99N	-5.65
S9T	46.6
P36E	24.6
G71V	-5.42
S9F	19.7
Y53A	-5.16
R163C	1.08
R99T	-2.94

Series 4
Target: BATF3, bZIP domain (human)
Technique: DHFR protein complementation
Medium: yeast
Setting: single substitutions, most at no-binding floor
Baseline: wild-type JUN-FOS pair
Reading: higher = stronger binding
Starting sequence: JUN, bZIP domain (human); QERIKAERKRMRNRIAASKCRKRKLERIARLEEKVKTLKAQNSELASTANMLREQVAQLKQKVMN; partner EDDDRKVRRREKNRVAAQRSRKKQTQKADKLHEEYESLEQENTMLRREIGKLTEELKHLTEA
Change	binding fitness
S47F	0.223 natural log
E33D	0.214 natural log
Q55P	-1.04 natural log
E33I	0.118 natural log
A40L	0.137 natural log
T48Y	0.15 natural log
R53G	0.0469 natural log
K39E	0.162 natural log
A29S	0.134 natural log
E54I	0.186 natural log
R53I	-0.0455 natural log
R30Y	0.126 natural log
E32Y	0.0833 natural log
E33S	0.14 natural log
E44Q	0.172 natural log
A46H	0.153 natural log
A49N	-0.228 natural log
S43K	0.314 natural log
I28W	0.186 natural log
A46D	-0.0762 natural log

Series 5
Target: Sal-like protein 4, full length isoform B (SALL4, Homo sapiens, UniProt Q9UJQ4-2, residues 1-616)
Technique: universal PBM
Molecule type: double-stranded DNA, one strand shown
Medium: in vitro
Tested at: not given
Setting: 8-mer, flanks averaged, mean of replicates
Reading: higher = stronger binding
Oligonucleotide	E-score
AGGACTCG	-0.131
CGTTAGCA	0.0151
CATCAATG	0.0436
CCGTGCGC	-0.324
GACGTCGC	-0.213
CCGTGGAC	-0.247
GGTCGCCA	-0.336
ATACTGAC	0.149
AATAGGAC	0.161
GACCGCCA	-0.202
CGACGCGA	-0.319
ACTCTTTG	0.0409
TCCTCAGA	0.00172
AGGCCTTA	-0.114
CTGAACCC	-0.296
CACTGTCG	-0.238
TCTGGTAA	0.0204
CGCTTGCC	-0.171

Some of these lines once more (series 2):
Oligonucleotide	RBNS enrichment (R)
GCAUGCAAAGCAGACUGCAGCUAGUUAAGAGGAGGCUGCAGUAUCAUCCCUAGUAUCUGCUCUGCAAACCAUCUAGACAGAAGCAGUAGGCCUGGCUUUCUCAACUGCCU	3.27
CUACAGAAAAAAGACAAGUGGAAGUGGUUUACCAAUACCUAGCAUGGUACAAUCAGAGCUCCGUGGGGACUGUAGGGAGCAGGGUGUUACUACUGGCCGUUCUUCCCACA	0.511
GUUUAUAAUGUUCUGGCGUUGUAGCAGAAGGUUGGAUGACACACAAGCAUCUGAAACGUGCCAGCCUCUGCGGUUCCCGUUAUCAUCUUAGGGGGCAGAAGCCAAUGGGU	0.618
UUGGGGCCUAGGAACCGAGGGCACACGGGACUCUAGCCUCAUCCCCAGGACCCCCUUGGCUCAGAGUGUGGUGCUAGAAACUGGCCCCCAGCCCAGCCCCAGUACUGCCA	0.288
UUUUACCUUAAAUCUGCCUUUGUUUCUAAAGGUAGAUCAUCUUGAAUAUUUGCUUAAAAUUGCUAGUGAUUUCAUUACCAAGUUACUUGAAAAAAUGUUCUAUAUGCAUU	0.772
UGAGUGAUGAGCACUUCCAAGCACCCCUCUGCCCUUUCUCUGUCCUUAUGCUGUCCCGGCCUCGCCAGCCCUCUGGGGCAUUGUGGGAGAUGCCUGCCAGGAAUGAGCAA	0.714
